Published values from different studies.
A part holds a random share of what one study measured. Positions count from the first letter of the parent shown.

Series 1 — method: protein binding microarray; molecule type: double-stranded DNA, one strand shown; sample: in vitro; concentration: not given; relative to: not given; reading: higher = stronger binding; measurement: E-score
Target: Histone acetyltransferase KAT6A, winged helix 1, GST fusion (KAT6A, Homo sapiens, UniProt Q92794, residues 1-85)
Notes: 8-mer, flanks averaged, mean of 2 arrays, mostly near background
Construct (chain): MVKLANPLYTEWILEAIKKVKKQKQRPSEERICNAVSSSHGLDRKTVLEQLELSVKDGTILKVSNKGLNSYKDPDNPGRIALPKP
Strand = GTGCTCGA; result = -0.113
Strand = GACTTGCA; result = -0.148
Strand = ATAGACTG; result = -0.0943
Strand = ATGCAACG; result = -0.0119
Strand = ACTGAGTA; result = -0.0816
Strand = ATACCCCC; result = -0.0241
Strand = GCGGTCTA; result = 0.257
Strand = ATCATCAC; result = -0.206
Strand = CGGGCTGC; result = 0.272
Strand = ACCGCATC; result = 0.289
Strand = GTGCACAC; result = -0.139
Strand = CTGCATTA; result = 0.0115
Strand = ATCTTGTG; result = -0.295
Strand = AGGATGTG; result = -0.219
Strand = GTTATAAA; result = -0.125
Strand = GGTTCTCA; result = -0.00265
Strand = TAATTACA; result = -0.12
Strand = ATTGCGCG; result = 0.439
Strand = AGAAGGAA; result = 0.117
Strand = CACTTAAG; result = 0.0258
Strand = CCTTTCTC; result = -0.205
Strand = CTACGCGA; result = 0.181
Strand = AACTTGAA; result = -0.142
Strand = GACAAATC; result = -0.0412
Strand = GCGTGAGC; result = 0.327

Series 2 — target: CCNE2, cyclin fold, Cln2 fusion (human); method: yeast growth competition, sequencing; sample: yeast; notes: weak parent motif; relative to: not given; reading: higher = stronger binding; measurement: normalised enrichment score
Starting sequence: PKN2 docking peptide (human); VSAVQKLDFSDTM; partner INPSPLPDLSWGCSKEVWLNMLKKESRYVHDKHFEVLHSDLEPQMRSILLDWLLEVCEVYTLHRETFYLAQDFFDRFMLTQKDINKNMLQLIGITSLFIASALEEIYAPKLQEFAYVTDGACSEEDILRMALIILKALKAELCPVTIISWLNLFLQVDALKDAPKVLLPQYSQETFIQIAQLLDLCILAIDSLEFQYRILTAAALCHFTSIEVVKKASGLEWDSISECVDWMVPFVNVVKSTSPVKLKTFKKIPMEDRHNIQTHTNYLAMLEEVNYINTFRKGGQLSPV
Substitution = D8G; result = -0.176
Substitution = T12P; result = 0.812
Substitution = Q5R; result = 4.41
Substitution = K6C; result = 0.0502
Substitution = S2N; result = -0.198
Substitution = V1H; result = 0.333
Substitution = D11Y; result = -0.116
Substitution = F9K; result = -0.488
Substitution = M13F; result = -0.164
Substitution = K6W; result = 0.505
Substitution = S2I; result = 0.365
Substitution = D11H; result = 0.33
Substitution = V1C; result = 0.506
Substitution = V1R; result = -0.123
Substitution = T12S; result = 0.38
Substitution = S2E; result = -0.511
Substitution = V1T; result = 0.111

Series 3 — method: RNA Bind-n-Seq; molecule type: RNA; sample: in vitro; concentration: 365 nM; relative to: no-protein control; reading: higher = stronger binding; measurement: RBNS enrichment (R)
Target: RNA binding protein fox-1 homolog 2, RRM domain, GST-SBP tag (RBFOX2, Homo sapiens, UniProt O43251-10, residues 100-194)
Notes: natural RNA segment, single round, ends assumed
All sequences stand within: GGGAGUUCUACAGUCCGACGAUC … UGGAAUUCUCGGGUGCCAA
Construct (chain): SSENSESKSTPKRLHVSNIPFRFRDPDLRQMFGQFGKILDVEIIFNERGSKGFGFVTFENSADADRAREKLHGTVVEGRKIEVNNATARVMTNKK
Strand = AAUAAAUUUAUUCAUUAUAGAUAUUUGCGCCUGCUCUGUUUACUUGGAGGAAAAAGCACCCGUUGAGAACAAACAGACCUCAAUAAACAAGAAUAAUCAUGUGACCAUGG; result = 0.944
Strand = UAGCGUGGUAGGACUAGAUUUUUGUUUUCCCCACCAAGUAAAUGUUCACCUGUGACCUUGGGCUGGGAUUCUCUUUAGGAAAAAAGGCUACUACUAUGUUAUGAGAGUCA; result = 0.465
Strand = CAACAUUUAUCUGUAGCUAAGAUAUUUUCUCUUAAUAAUUACCUCCCAAAUGCUUUUAGUGAACCGACUGUAUUUUUCCGAGGUAUCUCGUGUACAUGGUACUUCUUUCU; result = 0.549
Strand = CUGUUUUCAAGGGGAGUAAGAUUGGUAACAUUUGGGGAGACUGUAUCUGUCUACUUAGCGUGGCUGUUUUGAGGGACUGUCCCAUCAGUGAACAAACUGCAUGGCCUUGG; result = 1.2
Strand = AGCCUACAGCAGAUUAUCAGCUCGGUGACUUUUCUUUCUGCCACCAUUUAGGUGAUGGUGUUUGAUUCAGAGAUGGCUGAAUUUCUAUUCUUAGCUUAUUGUGACUGUUU; result = 0.237
Strand = ACAAAGACAGAGAUUUGGUCUGCUUGACUUUCCCAACCCAAUUGGCCCCAUUGGAGAGCCAUCCAAACUGAGGAAAAUUAGGGGACUCCAAAAGAGUUUGAUUCUGGCAC; result = 0.219
Strand = AAGUGAAAAGUCCAGUGGUAUUGGCAUUGGCAGCAGGUGAGCAAUUUCACCCAGUGUCUUCUGCCUCCCUCUGCGUUGGUAUCUGCUACAUCCCAGGCCACCACCUCCGA; result = 0.259
Strand = GCCCACCGAGGACUACAUGAGCCAUAUCAUUGAGAAGUGUAGUAGUGUCAGGGGCAGAGAGUGAUGGGCACGAUUUAACAGGGAAAGAAAUGGGGCCAACAGUUCUUCCU; result = 0.337
Strand = CCUUUGCCUCCCAAGUGCUGGGACUAAAGGUGUGUGCCACCACUGUCCAGCUUGUGACCAGCCUUUUAAAAGUGCCACUCACUCCCUGACUGCCUUCAGCUGUAAUUAAG; result = 0.37
Strand = CCUUCUCUCCUCCCUGCCUAGAUCAGUCCUUCUCCAAAAGGACCUGGGAGCUGGCAGCCUGGGCAGGGGGGCUGAGGCACGUGGUAGCCCUCUUUCUGUGAAUGGGGUGG; result = 0.474
Strand = UAUCACUAGGCCAUAAAAAUGGAGAUGAUGUUUUGCUUGUGUCACAGUAGGUCUUGUGCAGUGUCACUUGUAGUUGCAUGGUUACAGCGUGCUGAGUUUGACCAUUACAU; result = 11.7
Strand = AUAUAACGAGGUAAUGCAUGUAAGCAUUUAGUACCAUGCCUGGCACAUAGUAAGCACUCAAUAAAUGGUAGUUACUUUUGUUGAGCUCAGCUGGUAGUUUGACCUCCGUU; result = 2.72

Series 4 — method: DHFR PCA, deep sequencing; sample: yeast; with: (+)-ABA 200 µM; relative to: wild-type fitted maximum; reading: higher = stronger binding; measurement: relative binding score
Target: ABI1, truncated, D143A, DHFR fusion (Arabidopsis thaliana)
Notes: methotrexate growth selection, single substitutions
Starting sequence: PYL1, truncated, DHFR fusion (Arabidopsis thaliana); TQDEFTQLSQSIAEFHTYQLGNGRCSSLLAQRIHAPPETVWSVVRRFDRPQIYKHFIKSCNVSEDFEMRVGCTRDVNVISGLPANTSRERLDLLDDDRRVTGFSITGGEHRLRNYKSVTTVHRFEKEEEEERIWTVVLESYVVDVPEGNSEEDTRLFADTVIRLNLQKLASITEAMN; partner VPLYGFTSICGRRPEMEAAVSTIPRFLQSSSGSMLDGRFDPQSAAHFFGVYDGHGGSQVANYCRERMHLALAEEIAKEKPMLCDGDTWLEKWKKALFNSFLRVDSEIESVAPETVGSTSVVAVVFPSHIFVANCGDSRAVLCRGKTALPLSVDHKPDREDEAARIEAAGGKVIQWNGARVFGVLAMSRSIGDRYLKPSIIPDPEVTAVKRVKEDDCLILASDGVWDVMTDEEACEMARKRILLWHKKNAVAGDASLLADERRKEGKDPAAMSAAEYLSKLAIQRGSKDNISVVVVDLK
Substitution = H55K; result = 105%
Substitution = V70M; result = 82.6%
Substitution = V142Q; result = 94.4%
Substitution = E125C; result = 105%
Substitution = A175L; result = 92.4%
Substitution = A30L; result = 100%
Substitution = R132V; result = 108%
Substitution = H122W; result = 0.521%
Substitution = R24T; result = 96.3%
Substitution = D75E; result = 103%
Substitution = G21A; result = 101%
Substitution = I52Y; result = 101%
Substitution = R155P; result = 2.07%
Substitution = L156W; result = 91.2%
Substitution = R90N; result = 68.4%
Substitution = E130H; result = 107%
Substitution = T120E; result = 23%
Substitution = G108H; result = 29.1%
Substitution = A35G; result = 72.7%
Substitution = L91Y; result = 0.894%
Substitution = V62Y; result = 81.2%
Substitution = C72F; result = 94%
Substitution = T120A; result = 15.2%
Substitution = R163Y; result = 42.3%

Series 5 — method: RNAcompete; molecule type: RNA; sample: in vitro; concentration: 20 nM; notes: 7-mer, probes averaged, single round; relative to: mean of 7-mers; reading: higher = stronger binding; measurement: 7-mer Z-score
Target: PABPC1L2, full length, GST fusion (mouse, UniProt A0ABA7IW68)
Target sequence (chain): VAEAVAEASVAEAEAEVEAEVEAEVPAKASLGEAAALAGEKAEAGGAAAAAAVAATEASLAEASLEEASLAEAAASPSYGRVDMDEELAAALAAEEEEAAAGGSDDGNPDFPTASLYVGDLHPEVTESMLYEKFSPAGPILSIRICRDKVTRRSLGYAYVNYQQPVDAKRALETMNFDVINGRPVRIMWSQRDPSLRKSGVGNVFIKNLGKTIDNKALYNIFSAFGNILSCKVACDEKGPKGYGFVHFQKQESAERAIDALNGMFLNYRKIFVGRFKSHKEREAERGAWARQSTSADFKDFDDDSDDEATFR
Strand = ACGAAGU; result = 0.0533
Strand = AUCCGAU; result = -0.242
Strand = ACACCAC; result = -0.0518
Strand = AGAAGUA; result = -0.11
Strand = CAUGAAA; result = 0.666
Strand = UAAUCGA; result = 0.0515
Strand = AAAACUU; result = 3.73
Strand = CAUAGAA; result = 0.325
Strand = ACUAGUU; result = -0.199
Strand = AGUGGGU; result = 0.0768
Strand = CGAGUUA; result = -0.199
Strand = AUUAACA; result = 0.0497
Strand = CAAGAGG; result = 0.291
Strand = CCGCAGC; result = -0.22
Strand = UGUUGUU; result = -0.436
Strand = GCCCCCA; result = -0.403
Strand = GACCUGG; result = -0.121
Strand = UCGCCCG; result = -0.373
Strand = GAACGGC; result = 0.0442

A few entries again (series 5):
Strand = AGAAGUA; result = -0.11
Strand = CAUAGAA; result = 0.325
Strand = UAAUCGA; result = 0.0515
Strand = CAUGAAA; result = 0.666
Strand = AGUGGGU; result = 0.0768
Strand = CAAGAGG; result = 0.291
Strand = CGAGUUA; result = -0.199
Strand = ACUAGUU; result = -0.199
Strand = GCCCCCA; result = -0.403
Strand = UCGCCCG; result = -0.373
Strand = UGUUGUU; result = -0.436
Strand = CCGCAGC; result = -0.22
Strand = GAACGGC; result = 0.0442
